Experimental data gathered from unrelated publications.
A part holds a random share of what one study measured. Changes are numbered by the printed parent chain.
Chain of UniProt Q9Y385 (whole entry, looked up): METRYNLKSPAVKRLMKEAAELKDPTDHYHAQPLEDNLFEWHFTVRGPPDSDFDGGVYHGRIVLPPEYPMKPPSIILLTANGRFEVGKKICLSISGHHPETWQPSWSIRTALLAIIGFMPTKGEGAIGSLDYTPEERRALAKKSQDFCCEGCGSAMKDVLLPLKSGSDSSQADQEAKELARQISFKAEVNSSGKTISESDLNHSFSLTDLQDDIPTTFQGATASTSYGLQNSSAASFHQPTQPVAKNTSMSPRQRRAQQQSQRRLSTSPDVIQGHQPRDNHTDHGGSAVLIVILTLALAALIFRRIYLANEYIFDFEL
Chain of UniProt P62253 (whole entry, looked up): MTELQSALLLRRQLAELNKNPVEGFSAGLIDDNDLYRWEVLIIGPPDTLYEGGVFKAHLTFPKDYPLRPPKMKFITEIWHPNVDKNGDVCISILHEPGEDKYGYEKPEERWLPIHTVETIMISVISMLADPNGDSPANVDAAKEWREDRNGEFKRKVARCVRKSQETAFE
Chain of UniProt Q9C0C9 (whole entry, looked up): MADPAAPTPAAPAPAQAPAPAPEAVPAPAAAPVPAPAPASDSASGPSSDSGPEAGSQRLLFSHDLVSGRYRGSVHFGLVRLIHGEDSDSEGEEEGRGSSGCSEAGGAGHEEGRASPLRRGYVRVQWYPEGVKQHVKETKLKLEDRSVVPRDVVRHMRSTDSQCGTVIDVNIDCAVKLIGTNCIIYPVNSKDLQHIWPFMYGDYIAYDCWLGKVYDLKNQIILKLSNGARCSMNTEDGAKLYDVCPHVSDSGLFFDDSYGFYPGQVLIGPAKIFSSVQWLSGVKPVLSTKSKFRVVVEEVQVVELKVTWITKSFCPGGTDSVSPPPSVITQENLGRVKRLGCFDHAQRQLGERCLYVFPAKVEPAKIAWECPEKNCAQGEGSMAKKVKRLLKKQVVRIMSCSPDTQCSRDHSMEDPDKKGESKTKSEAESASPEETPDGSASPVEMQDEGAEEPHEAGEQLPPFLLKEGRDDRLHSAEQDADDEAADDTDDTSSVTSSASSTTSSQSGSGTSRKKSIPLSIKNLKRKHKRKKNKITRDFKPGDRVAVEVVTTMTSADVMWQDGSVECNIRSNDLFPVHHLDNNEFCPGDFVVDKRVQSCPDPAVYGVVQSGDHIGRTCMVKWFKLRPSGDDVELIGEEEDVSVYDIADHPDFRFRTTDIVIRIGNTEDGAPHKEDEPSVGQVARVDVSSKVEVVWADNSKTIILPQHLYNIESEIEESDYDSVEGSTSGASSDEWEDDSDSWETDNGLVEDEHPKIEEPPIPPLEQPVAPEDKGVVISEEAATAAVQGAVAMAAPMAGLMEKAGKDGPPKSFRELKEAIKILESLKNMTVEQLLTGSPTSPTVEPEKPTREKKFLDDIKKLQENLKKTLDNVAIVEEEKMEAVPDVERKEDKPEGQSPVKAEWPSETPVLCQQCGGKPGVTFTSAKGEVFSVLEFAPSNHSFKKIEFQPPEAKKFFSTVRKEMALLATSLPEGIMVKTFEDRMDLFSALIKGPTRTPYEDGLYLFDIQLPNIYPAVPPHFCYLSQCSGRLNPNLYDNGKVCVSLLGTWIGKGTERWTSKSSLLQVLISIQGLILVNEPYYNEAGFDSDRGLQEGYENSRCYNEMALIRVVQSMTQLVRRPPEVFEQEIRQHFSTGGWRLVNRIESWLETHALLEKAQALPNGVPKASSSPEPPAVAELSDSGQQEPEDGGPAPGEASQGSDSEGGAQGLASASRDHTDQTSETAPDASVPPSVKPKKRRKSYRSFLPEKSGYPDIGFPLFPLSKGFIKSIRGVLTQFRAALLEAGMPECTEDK
Chain of UniProt Q9NPD8 (whole entry, looked up): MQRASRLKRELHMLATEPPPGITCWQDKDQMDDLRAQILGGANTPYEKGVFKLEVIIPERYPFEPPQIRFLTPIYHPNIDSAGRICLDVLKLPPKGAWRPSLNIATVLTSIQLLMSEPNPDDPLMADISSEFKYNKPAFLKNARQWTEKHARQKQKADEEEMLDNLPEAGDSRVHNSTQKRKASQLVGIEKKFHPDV
Chain of UniProt O00762 (whole entry, looked up): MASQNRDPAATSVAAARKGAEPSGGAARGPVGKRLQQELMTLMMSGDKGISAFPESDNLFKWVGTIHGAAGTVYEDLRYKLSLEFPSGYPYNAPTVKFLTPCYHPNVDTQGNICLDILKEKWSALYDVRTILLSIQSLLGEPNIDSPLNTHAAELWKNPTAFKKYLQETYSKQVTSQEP
Chain of UniProt Q9H832 (whole entry, looked up): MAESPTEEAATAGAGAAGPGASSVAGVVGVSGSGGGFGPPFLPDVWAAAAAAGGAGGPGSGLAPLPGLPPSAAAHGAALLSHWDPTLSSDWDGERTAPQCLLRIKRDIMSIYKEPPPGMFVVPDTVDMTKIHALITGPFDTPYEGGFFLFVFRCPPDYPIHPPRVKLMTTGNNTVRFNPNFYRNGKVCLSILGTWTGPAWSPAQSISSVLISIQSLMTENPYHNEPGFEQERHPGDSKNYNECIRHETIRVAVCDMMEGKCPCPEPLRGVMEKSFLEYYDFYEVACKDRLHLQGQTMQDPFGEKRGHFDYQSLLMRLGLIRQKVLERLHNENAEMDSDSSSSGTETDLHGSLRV
Chain of UniProt P68036 (whole entry, looked up): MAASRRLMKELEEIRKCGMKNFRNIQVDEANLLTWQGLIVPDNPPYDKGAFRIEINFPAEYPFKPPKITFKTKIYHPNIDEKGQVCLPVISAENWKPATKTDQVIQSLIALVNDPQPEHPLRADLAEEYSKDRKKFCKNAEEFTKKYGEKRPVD
Chain of UniProt Q969T4 (whole entry, looked up): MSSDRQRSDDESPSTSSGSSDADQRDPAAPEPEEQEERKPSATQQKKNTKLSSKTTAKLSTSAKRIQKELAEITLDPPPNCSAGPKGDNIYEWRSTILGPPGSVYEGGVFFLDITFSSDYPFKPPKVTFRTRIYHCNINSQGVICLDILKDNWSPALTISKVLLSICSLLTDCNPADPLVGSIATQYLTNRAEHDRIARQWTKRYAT
Chain of UniProt Q712K3 (whole entry, looked up): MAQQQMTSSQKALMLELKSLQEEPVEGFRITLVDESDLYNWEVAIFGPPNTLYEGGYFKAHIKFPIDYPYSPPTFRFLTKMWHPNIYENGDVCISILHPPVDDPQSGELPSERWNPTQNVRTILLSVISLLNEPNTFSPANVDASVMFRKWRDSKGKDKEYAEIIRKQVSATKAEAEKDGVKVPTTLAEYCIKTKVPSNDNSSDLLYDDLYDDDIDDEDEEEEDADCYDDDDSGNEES

Set 1 — Sequence: B1 (TRIM2 RING domain); technique: yeast two-hybrid; sample: yeast; setting: mostly zero background; baseline: not given; reading: higher = stronger interaction; quantity: lacZ reporter activity
B1: TRIM2 RING domain (UniProt Q9C040); chain VRQIDKQFLICSICLERYKNPKVLPCLHTFCERCLQNYIPAHSLTLSCPVCRQTSILPEKGV
target = UBE2L3 UBC core domain (UniProt P68036); result = 0
target = UBE2J1 UBC core domain (UniProt Q9Y385); result = 0
target = UBE2T UBC core domain (UniProt Q9NPD8); result = 0
target = UBE2O UBC core domain (UniProt Q9C0C9); result = 0
target = UBE2G1 UBC core domain (UniProt P62253); result = 0
target = UBE2C UBC core domain (UniProt O00762); result = 0
target = UBE2Z UBC core domain (UniProt Q9H832); result = 0
target = BIRC6 UBC core domain (UniProt Q9NR09); result = 0
target = UBE2R2 UBC core domain (UniProt Q712K3); result = 0
target = UBE2I UBC core domain (UniProt P63279); result = 0
target = UBE2E3 UBC core domain (UniProt Q969T4); result = 0

Set 2 — technique: EMSA with sequencing; form: double-stranded DNA, one strand shown; sample: in vitro; concentration: 10 and 20 nM; baseline: negative control set to 0; reading: higher = stronger binding; quantity: normalised bound fraction
Target: Hepatocyte nuclear factor 3-alpha (Foxa1, Mus musculus, UniProt P35582, residues 1-468, full length assumed)
Chain of UniProt P35582 (whole entry, looked up): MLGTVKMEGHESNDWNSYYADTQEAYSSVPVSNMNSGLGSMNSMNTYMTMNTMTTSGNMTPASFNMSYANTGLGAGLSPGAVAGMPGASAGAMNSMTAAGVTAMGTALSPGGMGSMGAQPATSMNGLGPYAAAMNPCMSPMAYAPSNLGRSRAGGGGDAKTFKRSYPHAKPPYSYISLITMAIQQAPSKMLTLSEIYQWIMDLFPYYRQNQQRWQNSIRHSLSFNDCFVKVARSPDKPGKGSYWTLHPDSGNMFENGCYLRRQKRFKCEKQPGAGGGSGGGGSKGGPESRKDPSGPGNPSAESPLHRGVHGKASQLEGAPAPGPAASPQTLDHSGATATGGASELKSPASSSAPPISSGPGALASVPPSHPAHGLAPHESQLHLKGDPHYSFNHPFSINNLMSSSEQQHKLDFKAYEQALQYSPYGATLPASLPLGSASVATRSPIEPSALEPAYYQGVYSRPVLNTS
Setting: whole designed probe, mean of two concentrations, ends assumed
All sequences stand within: GTGAGCGGTGCCCATTGATGGGGAAC … TTTCACTGGGATCGTGGGGAC
Strand = AAGTTATTACATAATGATAAAGGGGCTGATTCAGCAAGAAGATACAAGTATAAATATATATGCAATCAACACTGGAGCACCCAGATATATAAAGTAATTTTTATCAGAGCTAAAGAGAGAGAGACCTCAGTACAATAATAGCTAGAGACTTTAACACCCCACCTTCAGCAACGGACATATCTCCCAGACAGAA; result = 0.545 ratio
Strand = AGGTGAATTGGCTGCTTCCATCCTGGCTTGGAACTTCAGACATAGAAGCCTTGGGACTCTGACTCATGCTTCTCAGGACTTTCTCCAGATGCTTGTTTGCTGAATCTCTGTGGATCACGTGACCTTAGCCAGGGATGTTGGTGAAACTGTGTGTTGGTCTAGGTACCTAGCCCATGCTAGGTGCTCATCGAAT; result = 0.0514 ratio
Strand = TCTGCGTCTAGCTCTGGAGCTCAGACTGGAACTGCTCAGCAGGAAACAGGTCTTGCTGCTAGTAAATTACCATGACTGTGTTTACATGGTGAGTCAACAGGCATAGGTCAGCTCTCCTTCTCTCCAAGCAGTCCCTTGAGCTGATGATTTATCTGGGTAAATCACATTCCAAATCAATTTTATTTTTGGCTGT; result = 0.157 ratio
Strand = TTCTTGGAAACGTAGGCACTAACTATATCATGGCCACCTAGGGCTTTCCCTTTCCTGTTTCATATTAGTACATCACAAAGGACTGAGTTCTCGATGTTTACTCAGTAAGAAGATAGCAGAAGAGTGGCTGAGAAGTAATAATCCTCTGTTTGTGTGATGACTGTATCCTGCTTGTGGCAACAGTGTGATGTGG; result = 0.381 ratio
Strand = ATACAGGTTTTATAACATATGTAGTTAAGGTTTCTAAAGTGAGATTATGTCTCAACTAACTATAACTGAAATAGAAGAGTGTATCTATTCCAATGTAATCTAGATGACTGATAATGAGAAAAATGATCCTTATAAAGAATAGCAAATCATGATCCTGAGAGAGTAAGTATCAAAGCTGATGGGAGGATGCTAT; result = -0.0514 ratio

Set 3 — technique: DHFR PCA, deep sequencing; sample: yeast; together with: (+)-ABA 58 µM; baseline: wild-type fitted maximum; reading: higher = stronger binding; quantity: relative binding score
Target: ABI1, truncated, D143A, DHFR fusion (Arabidopsis thaliana)
Setting: methotrexate growth selection, single substitutions
Parent: PYL1, truncated, DHFR fusion (Arabidopsis thaliana); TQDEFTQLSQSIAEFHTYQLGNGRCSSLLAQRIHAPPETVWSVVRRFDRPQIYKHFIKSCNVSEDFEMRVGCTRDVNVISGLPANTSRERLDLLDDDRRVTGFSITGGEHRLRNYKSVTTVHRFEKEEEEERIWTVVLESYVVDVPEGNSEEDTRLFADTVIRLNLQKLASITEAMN; partner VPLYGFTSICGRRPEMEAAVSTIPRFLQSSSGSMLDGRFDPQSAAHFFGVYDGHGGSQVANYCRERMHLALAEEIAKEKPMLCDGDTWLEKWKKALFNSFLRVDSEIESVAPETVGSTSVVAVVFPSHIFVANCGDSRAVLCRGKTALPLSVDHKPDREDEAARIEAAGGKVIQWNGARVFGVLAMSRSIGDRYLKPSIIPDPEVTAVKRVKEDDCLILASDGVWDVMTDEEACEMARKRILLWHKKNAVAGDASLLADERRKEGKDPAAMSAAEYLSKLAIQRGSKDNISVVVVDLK
Change = D75T; result = 91%
Change = D95N; result = 74.4%
Change = F157H; result = -2.34%
Change = Q167P; result = 6.12%
Change = Q10Y; result = 69.9%
Change = T17G; result = 58.3%
Change = S80T; result = 79.1%
Change = R123C; result = 88.5%
Change = I12G; result = 9.51%
Change = E109Y; result = 51.6%
Change = R88F; result = 77.2%
Change = V143Q; result = 38.1%
Change = E131Q; result = 97.5%
Change = R45K; result = 75.5%
Change = V78Y; result = 51.8%
Change = F66A; result = 78.9%
Change = R111D; result = 6.28%
Change = N114H; result = 82.1%
Change = E89N; result = -24.4%
Change = L112G; result = 0.000704%
Change = L112A; result = 1.18%
Change = A170N; result = 38%
Change = G107W; result = 14.3%
Change = R113E; result = 83.9%
Change = V100Y; result = 27.8%

Set 4 — technique: universal PBM; form: double-stranded DNA, one strand shown; sample: in vitro; concentration: not given; reading: higher = stronger binding; quantity: E-score
Target: Sal-like protein 4, full length isoform B (SALL4, Homo sapiens, UniProt Q9UJQ4-2, residues 1-616)
Setting: 8-mer, flanks averaged, mean of replicates
Strand = ATTCAAAG; result = 0.116
Strand = GCTTTCGA; result = -0.121
Strand = CTGCGTAC; result = -0.217
Strand = CTCTATTC; result = -0.0019
Strand = CTTAACGA; result = -0.0148
Strand = ATGACGCG; result = 0.0749
Strand = TAGAGGAA; result = 0.108
Strand = CAGTAGAG; result = -0.142
Strand = TAAGGCGA; result = 0.047
Strand = AGCACTCA; result = -0.159
Strand = ACGCAAAG; result = -0.00249
Strand = AAGACGGG; result = -0.28
Strand = CTACGGTA; result = -0.11
Strand = CTAGACCC; result = -0.28
Strand = CAAACGGG; result = -0.192
Strand = GCGAGCGA; result = -0.228
Strand = CCACGATC; result = 0.126

Excerpt of the above (set 1):
target = UBE2J1 UBC core domain (UniProt Q9Y385); result = 0
target = UBE2T UBC core domain (UniProt Q9NPD8); result = 0
target = UBE2O UBC core domain (UniProt Q9C0C9); result = 0
target = UBE2G1 UBC core domain (UniProt P62253); result = 0
